Assay results gathered from unrelated publications.
A part holds a random share of what one study measured. Changes are numbered by the printed parent chain.

Block 1
Target: RNA binding protein fox-1 homolog 2, RRM domain, GST-SBP tag (RBFOX2, Homo sapiens, UniProt O43251-10, residues 100-194)
Method: RNA Bind-n-Seq
Form: RNA
Medium: in vitro
Tested at: 365 nM
Setting: natural RNA segment, single round, ends assumed
Relative to: no-protein control
Reading: higher = stronger binding
Measurement: RBNS enrichment (R)
Shared flanks, not repeated: GGGAGUUCUACAGUCCGACGAUC … UGGAAUUCUCGGGUGCCAA
Residues (chain): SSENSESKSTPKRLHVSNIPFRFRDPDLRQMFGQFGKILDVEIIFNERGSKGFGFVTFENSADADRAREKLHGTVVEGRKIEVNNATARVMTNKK
UGAAGCCCGUGCUCCCUGGAAGCCCUCACCUUCCACAGACAACAGAGAUUUCCUGCUAGAGGAAAGGGGGAAUCUCUGUGCAUCCCAGCGCUGCCUGGAAACUUACCUUC: 1.32
CUGGGUAUAAUUUGCACUUUUGAGACUGGUAGCUAACCAUCUUAUGAGUGCCAAUGUGUCAUUUAGUAAAACUUAAAUAGAAACAAGGUCCUUCAAAUGUUCCUUUGGCC: 0.28
UAAUAGACUUAUUUAAUAUUAAUUCCUAAACUUUGCACUGUCAAUCCUCUGCUGAGUUGUGGGAGGCAGACCUCAGUUUGCUUGUUUUUUGUGAAAGCUAACUUUAUGAU: 0.562
GGAUCUCCCCAAGUAUGUCCUACUCUGUGCACCCUGUGCUGGAGCCCUACUUUUCACCCCGCUGCCCCUCGGGAGGACUGCAGCUCGCUCCUGUUGGGAUCGCAAAGCUC: 0.65
AUGAGAAACUCAGAGCUCUGGACCGAAAGCAGAAAGUUUGCCGGGAAAAAAAAAGACAACAUUAUUACCAUCGAUUCAGUGCCUGGAUAAAGAGGAAAGCUUACUUGUUU: 0.614
GGCUAUCCGAGACGCUGUCAGCCAUUUUGCUCUGUUCCUGGUAGUGUGCAGACCUCGGGGUUGAGAACGGGGUGAAGAUGAAUGUCCUUAGUGUUGGUGCAGCACCAGCC: 0.9
UCCAGAUUAAUUUUCCGUGUUUGAAGUAUGUGCAUAUGUGCUUUACAGAAUAAAACAUCUGAAUUUAUUUGCUCCGCGUCUUCUUCCUCCAGCCGGAUGGGUGUUUUCUA: 0.438
UAAUUUUUUUGGCCAAUUUAUUUUCUCCCACUUUGUCAUUAAAAUCACAUGUCUAACUGGCUCACCACAUAGUGUGCUUUGAUUGUAUUUUGGCUUUGACUCUGCCAUUU: 0.797
GCUUGUGGCCACUUGCCCAGCACAACUGUGUUUUGUGGGGCGUCUUUUAGGACUUAGCAGAGCUGAGAGCCCUUUGUUGCUCAAUGCUGUGAGCCUUAAGCAUGUGAAUC: 2.89
UUCAUACACAUGCAAUCAUACAUGCACACUGACUCUGAACUGGGUGAACUCUGUGGAGGGAGGCCCAGAAUGGGUGCUUUCACCAAGAAUUUGUCUGUGUACAACUCUAG: 0.454
GAUUCUCUACCCUCUAUCAAUACUAAAAAUAGAUUAGGAGGGUUUUUUUUUCUGUUUAUCAUGUUGAAUUUCAUUGACUUAAUUAGUCUUUAAAUUUGAAAACAUGUUUU: 0.69
AGAACUGGGGGGCUGCGCCCGCUCCCUCCUUAAUCCUAGAUGAUUUGCUCAUGAAAUAGAGGUGGGGGACGACCGCAUGCACUCUGGGAGGUGCAGCCCUAAGGGGUGGA: 1.95

Block 2
Target: CCNB3, cyclin fold, Cln2 fusion (human)
Method: yeast growth competition, sequencing
Medium: yeast
Setting: weak parent motif
Relative to: not given
Reading: higher = stronger binding
Measurement: normalised enrichment score
Starting sequence: SLBP docking peptide (human); ARYKRKLLINDFG; partner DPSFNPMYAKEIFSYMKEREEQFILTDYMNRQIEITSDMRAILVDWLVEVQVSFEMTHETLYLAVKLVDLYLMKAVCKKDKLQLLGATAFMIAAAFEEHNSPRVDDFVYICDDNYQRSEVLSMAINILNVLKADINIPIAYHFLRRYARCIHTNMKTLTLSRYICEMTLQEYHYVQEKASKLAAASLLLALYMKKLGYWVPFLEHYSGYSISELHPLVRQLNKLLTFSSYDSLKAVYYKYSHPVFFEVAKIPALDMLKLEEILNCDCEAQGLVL
I9C: 0.283
Y3S: 0.662
D11W: 0.0621
A1R: -0.0803
R2T: 0.667
Y3A: 0.383
K6E: 0.438
I9N: 0.198
G13L: -0.499
L8H: -0.0558
F12W: 0.041
K4P: -0.145
I9W: 0.133
L7T: -0.138
N10L: 0.683
G13H: 0.0473
K6P: 0.435

Block 3
Target: Prothrombin, mature alpha-thrombin (F2, Homo sapiens, UniProt P00734)
Method: aptamer microarray, sandwich
Form: DNA with 2'F-ANA
Medium: in vitro
Tested at: 200 nM
Setting: whole 15-mer aptamer, many near background
With: Cy3 exosite-II aptamer, 400 nM
Reading: higher = stronger binding
Measurement: mean fluorescence intensity
Strand: GGTTGGTGTGGTTGG
2'F-ANA at 1 2 3 6 10 11 14: 80.5 a.u.
2'F-ANA at 1 3 4 5 6 7 8 9 11 14: 67.6 a.u.
2'F-ANA at 1 3 4 6 8 14: 124 a.u.
2'F-ANA at 1 4 5 8 10 13 14: 58.4 a.u.
2'F-ANA at 6 8 9 11 13: 370 a.u.
2'F-ANA at 1 2 5 7 8 9 11 13: 51.9 a.u.
2'F-ANA at 1 3 4 5 6 7 8 12: 152 a.u.
2'F-ANA at 5 6 8 9 10 13 15: 51.1 a.u.
2'F-ANA at 3 8 9 10 11 13 14: 391 a.u.
2'F-ANA at 2 4 5 7 8 10 13 14: 91.9 a.u.
2'F-ANA at 1 2 13 14 15: 52.3 a.u.
2'F-ANA at 2 6 11 13: 283 a.u.
2'F-ANA at 2 3 8 9 14: 461 a.u.
2'F-ANA at 1 13: 156 a.u.
2'F-ANA at 1 2 7 11 13 15: 125 a.u.
2'F-ANA at 1 2 4 7 10 13: 50 a.u.

Single results of other studies
PhoQ, residues 284 288 289 292 302 303 DDMDFR  fold induction (PhoP, residues 12 14 15 18 19 TQAIL (Escherichia coli, UniProt P23836); Sort-seq, item: YFP reporter; E. coli; PhoQ-PhoP variant library, with: 10 µM Mg2+; relative to: high Mg2+ state, higher = stronger signaling): 0.761
